Assay results gathered from unrelated publications.
Lines come from different studies, so protocols differ. Numbers after ± are the reported error.
RIPK2: Receptor-interacting serine/threonine-protein kinase 2 (RIPK2, Homo sapiens, UniProt O43353)
UniProt O43353, sequence (whole entry, looked up): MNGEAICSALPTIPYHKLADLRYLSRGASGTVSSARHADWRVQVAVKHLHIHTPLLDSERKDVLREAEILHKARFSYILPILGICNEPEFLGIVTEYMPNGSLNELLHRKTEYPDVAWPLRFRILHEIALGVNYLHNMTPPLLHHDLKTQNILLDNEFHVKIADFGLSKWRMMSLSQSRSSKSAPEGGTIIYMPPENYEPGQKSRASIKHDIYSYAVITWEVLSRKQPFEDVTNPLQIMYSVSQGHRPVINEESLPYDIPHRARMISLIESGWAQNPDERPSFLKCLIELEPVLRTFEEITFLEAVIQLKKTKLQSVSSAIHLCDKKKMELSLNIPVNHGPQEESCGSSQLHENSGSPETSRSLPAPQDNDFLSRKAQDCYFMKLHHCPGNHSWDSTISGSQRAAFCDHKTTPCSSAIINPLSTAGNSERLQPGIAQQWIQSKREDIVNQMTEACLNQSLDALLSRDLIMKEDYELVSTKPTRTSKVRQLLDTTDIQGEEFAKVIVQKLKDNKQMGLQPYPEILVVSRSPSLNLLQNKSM
ADORA1: Adenosine receptor A1 (ADORA1, Homo sapiens, UniProt P30542)
UniProt P30542, sequence (whole entry, looked up): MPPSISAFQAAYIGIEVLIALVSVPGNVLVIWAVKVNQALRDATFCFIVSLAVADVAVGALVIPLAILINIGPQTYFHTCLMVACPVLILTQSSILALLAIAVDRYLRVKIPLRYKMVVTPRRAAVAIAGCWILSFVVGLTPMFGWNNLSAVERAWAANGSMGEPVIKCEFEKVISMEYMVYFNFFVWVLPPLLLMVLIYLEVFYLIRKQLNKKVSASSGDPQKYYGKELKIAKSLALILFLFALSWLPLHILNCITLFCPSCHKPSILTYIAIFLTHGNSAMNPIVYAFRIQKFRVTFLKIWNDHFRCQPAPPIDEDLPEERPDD
MAPK10: Mitogen-activated protein kinase 10 (MAPK10, Homo sapiens, UniProt P53779)
UniProt P53779, sequence (whole entry, looked up): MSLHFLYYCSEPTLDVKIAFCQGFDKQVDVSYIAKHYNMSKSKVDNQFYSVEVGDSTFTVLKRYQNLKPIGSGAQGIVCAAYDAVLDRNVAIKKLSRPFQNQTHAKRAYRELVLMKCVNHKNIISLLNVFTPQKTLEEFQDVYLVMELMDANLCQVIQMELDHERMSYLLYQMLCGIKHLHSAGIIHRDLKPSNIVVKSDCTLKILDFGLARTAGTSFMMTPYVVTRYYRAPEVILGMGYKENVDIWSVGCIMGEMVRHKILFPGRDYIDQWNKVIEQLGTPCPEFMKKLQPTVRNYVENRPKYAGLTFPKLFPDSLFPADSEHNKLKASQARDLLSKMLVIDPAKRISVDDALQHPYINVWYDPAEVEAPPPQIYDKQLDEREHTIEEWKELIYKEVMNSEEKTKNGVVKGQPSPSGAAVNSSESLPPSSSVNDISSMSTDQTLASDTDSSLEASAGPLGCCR
UniProt P56817, sequence (whole entry, looked up): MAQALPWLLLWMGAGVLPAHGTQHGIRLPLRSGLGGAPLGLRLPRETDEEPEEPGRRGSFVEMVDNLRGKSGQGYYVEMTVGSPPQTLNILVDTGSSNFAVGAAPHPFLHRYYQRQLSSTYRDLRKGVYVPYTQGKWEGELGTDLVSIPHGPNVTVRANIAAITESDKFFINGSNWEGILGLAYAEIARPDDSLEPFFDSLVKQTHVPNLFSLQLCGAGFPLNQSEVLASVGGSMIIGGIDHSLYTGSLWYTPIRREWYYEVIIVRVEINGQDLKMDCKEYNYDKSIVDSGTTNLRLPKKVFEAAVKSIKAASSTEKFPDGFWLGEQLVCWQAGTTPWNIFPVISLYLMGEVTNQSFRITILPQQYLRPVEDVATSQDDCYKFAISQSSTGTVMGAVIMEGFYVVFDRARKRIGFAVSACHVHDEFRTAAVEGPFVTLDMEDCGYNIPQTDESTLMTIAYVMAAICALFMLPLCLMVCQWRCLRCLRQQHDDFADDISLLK
UniProt P08246, sequence (whole entry, looked up): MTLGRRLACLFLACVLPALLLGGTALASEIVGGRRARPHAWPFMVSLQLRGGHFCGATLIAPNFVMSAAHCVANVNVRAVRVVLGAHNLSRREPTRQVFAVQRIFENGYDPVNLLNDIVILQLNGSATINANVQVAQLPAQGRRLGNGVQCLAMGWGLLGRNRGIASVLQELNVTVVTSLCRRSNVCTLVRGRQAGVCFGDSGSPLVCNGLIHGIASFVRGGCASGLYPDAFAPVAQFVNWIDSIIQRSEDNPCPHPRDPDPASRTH
UniProt P51679, sequence (whole entry, looked up): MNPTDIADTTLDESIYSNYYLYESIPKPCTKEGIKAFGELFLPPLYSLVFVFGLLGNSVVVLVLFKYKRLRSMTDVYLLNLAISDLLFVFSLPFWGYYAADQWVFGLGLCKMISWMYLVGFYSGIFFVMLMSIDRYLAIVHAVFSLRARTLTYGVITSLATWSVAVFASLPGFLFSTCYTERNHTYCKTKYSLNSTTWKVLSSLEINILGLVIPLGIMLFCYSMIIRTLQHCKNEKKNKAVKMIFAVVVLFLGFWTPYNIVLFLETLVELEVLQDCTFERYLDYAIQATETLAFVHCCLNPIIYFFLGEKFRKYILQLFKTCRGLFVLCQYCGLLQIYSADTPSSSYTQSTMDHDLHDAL
UniProt P00690, sequence (whole entry, looked up): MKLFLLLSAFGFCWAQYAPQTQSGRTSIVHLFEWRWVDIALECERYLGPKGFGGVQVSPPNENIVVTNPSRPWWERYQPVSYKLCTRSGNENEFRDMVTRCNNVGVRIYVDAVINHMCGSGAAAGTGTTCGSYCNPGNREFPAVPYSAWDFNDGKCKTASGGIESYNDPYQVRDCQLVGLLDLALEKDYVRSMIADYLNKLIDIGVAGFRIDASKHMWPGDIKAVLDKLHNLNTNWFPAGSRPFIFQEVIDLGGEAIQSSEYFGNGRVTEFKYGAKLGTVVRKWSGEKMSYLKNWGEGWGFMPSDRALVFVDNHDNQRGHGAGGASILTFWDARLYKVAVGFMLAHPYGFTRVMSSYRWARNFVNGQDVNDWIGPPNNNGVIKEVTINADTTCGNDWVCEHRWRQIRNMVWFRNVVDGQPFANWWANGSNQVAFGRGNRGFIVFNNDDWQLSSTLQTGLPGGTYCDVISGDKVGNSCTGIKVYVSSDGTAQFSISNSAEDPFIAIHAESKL
UniProt P09917, sequence (whole entry, looked up): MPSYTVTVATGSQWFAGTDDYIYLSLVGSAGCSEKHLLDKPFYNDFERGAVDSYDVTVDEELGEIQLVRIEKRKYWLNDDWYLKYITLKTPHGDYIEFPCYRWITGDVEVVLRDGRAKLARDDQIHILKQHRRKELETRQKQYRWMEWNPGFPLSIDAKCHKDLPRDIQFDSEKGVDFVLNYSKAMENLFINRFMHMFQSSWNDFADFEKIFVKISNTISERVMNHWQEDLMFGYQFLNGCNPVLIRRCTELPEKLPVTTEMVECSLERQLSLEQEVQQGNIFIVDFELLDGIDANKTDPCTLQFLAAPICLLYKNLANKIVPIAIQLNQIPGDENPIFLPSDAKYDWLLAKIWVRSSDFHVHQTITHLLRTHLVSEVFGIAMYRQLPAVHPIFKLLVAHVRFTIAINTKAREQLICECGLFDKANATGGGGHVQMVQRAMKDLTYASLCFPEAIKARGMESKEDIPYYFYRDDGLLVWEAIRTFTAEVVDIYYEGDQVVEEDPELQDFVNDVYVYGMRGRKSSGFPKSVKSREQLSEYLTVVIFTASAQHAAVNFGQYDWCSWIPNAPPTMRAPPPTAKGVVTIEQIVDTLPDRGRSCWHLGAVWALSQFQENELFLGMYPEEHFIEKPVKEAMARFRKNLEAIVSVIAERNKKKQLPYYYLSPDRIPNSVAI
UniProt Q9UL62, sequence (whole entry, looked up): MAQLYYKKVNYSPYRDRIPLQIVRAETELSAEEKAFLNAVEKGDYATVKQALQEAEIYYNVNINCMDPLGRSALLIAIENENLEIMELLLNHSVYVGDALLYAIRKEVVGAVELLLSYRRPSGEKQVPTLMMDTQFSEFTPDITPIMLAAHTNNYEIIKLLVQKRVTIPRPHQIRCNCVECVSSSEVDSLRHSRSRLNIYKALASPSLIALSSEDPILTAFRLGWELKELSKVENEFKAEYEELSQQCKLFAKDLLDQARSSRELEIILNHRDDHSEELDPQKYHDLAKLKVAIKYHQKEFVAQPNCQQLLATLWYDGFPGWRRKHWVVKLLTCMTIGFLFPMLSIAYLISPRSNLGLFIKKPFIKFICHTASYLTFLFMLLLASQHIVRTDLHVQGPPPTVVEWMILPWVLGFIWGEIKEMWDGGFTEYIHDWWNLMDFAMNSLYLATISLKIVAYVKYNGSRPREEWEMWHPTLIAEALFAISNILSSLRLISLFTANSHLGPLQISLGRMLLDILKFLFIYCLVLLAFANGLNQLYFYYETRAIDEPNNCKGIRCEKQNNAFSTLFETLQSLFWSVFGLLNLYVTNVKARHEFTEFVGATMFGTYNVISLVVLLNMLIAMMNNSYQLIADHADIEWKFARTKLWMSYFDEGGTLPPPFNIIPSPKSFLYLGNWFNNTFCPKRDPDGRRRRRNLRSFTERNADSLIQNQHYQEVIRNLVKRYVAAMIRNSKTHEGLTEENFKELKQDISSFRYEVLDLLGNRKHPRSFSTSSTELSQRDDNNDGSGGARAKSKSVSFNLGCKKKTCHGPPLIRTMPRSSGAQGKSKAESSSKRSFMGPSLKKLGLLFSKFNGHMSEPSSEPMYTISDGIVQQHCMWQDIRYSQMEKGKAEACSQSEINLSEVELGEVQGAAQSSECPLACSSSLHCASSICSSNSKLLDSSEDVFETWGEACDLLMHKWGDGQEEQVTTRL
UniProt P52895, sequence (whole entry, looked up): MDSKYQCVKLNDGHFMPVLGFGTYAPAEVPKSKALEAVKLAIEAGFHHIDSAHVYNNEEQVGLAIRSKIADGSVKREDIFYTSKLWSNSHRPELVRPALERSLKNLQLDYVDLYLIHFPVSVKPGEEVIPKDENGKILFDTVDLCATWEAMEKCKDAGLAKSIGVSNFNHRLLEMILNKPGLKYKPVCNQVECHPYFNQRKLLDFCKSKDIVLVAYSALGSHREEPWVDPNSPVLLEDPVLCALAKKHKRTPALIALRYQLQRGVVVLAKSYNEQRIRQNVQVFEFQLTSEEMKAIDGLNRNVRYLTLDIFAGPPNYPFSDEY

Structure (SMILES)	target	test	test system	setting	IC50
Cc1ccc(C(=O)Nc2cc(S(=O)(=O)O)cc3ccc(S(=O)(=O)O)cc23)cc1NC(=O)Nc1cc(C(=O)Nc2cc(S(=O)(=O)O)cc3ccc(S(=O)(=O)O)cc23)ccc1C	Neutrophil elastase (ELANE, Homo sapiens, UniProt P08246)	enzyme activity, inhibitor, absorbance		pH 7.4	88.3 µM
Cn1c(=O)n(CCCO)c(=O)c2c1nc(Oc1cccc(C3(C(F)(F)F)N=N3)c1)n2Cc1ccc(Cl)cc1	TRPC1/TRPC5 (TRPC1/TRPC5, Homo sapiens, UniProt P48995+Q9UL62)	calcium influx, inhibitor, Fura-2	HEK T-REx expressing TRPC1/TRPC5	added: englerin A 30 nM	0.0049 µM
CCOc1cncc(-c2ccc(NC(=O)C3(c4ccnc(NS(=O)(=O)C5CC5)n4)CCOCC3)nc2)n1	CTP synthase 1 (Homo sapiens, UniProt P17812)	enzyme activity, inhibitor, mass spectrometry			0.0093 µM
C#Cc1cccc(Nc2ncnc3cc(OC)c(OCCCN4CCOCC4)cc23)c1	FLT1 (Homo sapiens, UniProt P17948)	kinase activity, inhibitor		added: ATP 80.8 µM	5.02 ± 0.153 µM
Nc1ncnc2c1ncn2[C@@H]1O[C@H](Cn2nnc(C(O)CCC(=O)c3ccccc3C(=O)O)n2)[C@@H](O)[C@H]1O (stereo partly shown)	2-succinylbenzoate--CoA ligase (menE, Escherichia coli, UniProt P37353)	enzyme activity, inhibitor, MenB-MenE coupled			53.5 ± 2.3 µM
O=C(O)c1cc(O)c2c(Cl)cc(Cl)cc2n1	Glutamate NMDA receptor; Grin1/Grin2a (Grin1/Grin2a, Rattus norvegicus, UniProt P35439+Q00959)	ion current, two-electrode voltage clamp		oocytes	1.5 µM
COc1cccc(Cc2cc(CCC(=O)NC3=C(C)C4=C(C)c5c(C)cc(C)n5[B-](F)(F)[N+]4=C3C)nn(CC(=O)Nc3ccc(Br)cc3)c2=O)c1	FPR1 (Homo sapiens, UniProt P21462)	calcium signal, antagonist			2.6 µM
CC(=O)N1CCC=C(c2cc3c(Nc4cc5ncsc5cc4F)ncnc3s2)C1	RIPK2	enzyme activity, inhibitor			0.008 µM
CC(=O)C1=C(C)NC(=O)NC1c1ccc([N+](=O)[O-])cc1 (stereo not shown)	AMY2 (Sus scrofa, UniProt P00690)	enzyme activity, inhibitor			71 µM
CC[C@H](C)[C@@H]1NC(=O)[C@H](Cc2c[nH]c3ccccc23)NC(=O)CNC(=O)c2cc3cc(c2)C(=O)NC[C@H](NC(=O)[C@H](Cc2ccc(O)cc2)NC1=O)C(=O)N[C@@H](Cc1ccccc1)C(=O)N[C@@H](Cc1ccc2ccccc2c1)C(=O)N[C@@H](CCCNC(=N)N)C(=O)N[C@@H](CCCNC(=N)N)C(=O)N[C@@H](CCCNC(=N)N)C(=O)N[C@@H](CCCNC(=N)N)C(=O)N[C@H](C(=O)NCCC(=O)NCCC(=O)N[C@@H](CCCCN)C(N)=O)CNC3=O	NF-kappa-B essential modulator, with IKK-beta (IKBKG, Homo sapiens, UniProt Q9Y6K9)	inhibitor, HTRF			1.5 ± 0.2 µM
COc1ccccc1-c1cccc(C(=O)N(C)Cc2cc(C3CC3)on2)c1	Acetyl-CoA synthetase (Cryptococcus neoformans, UniProt J9VFT1)				> 50 µM
CN(C)CCCCCCNc1nc(NCCCCCN(C)C)nc2ccc(NC(=O)CCl)cc12	Histone-lysine N-methyltransferase SETDB1, triple tudor domain (SETDB1, Homo sapiens, UniProt Q15047, C385A)	binding, TR-FRET displacement		1 h, room temperature	12 ± 4.5 µM
CCNC(=O)[C@H]1O[C@@H](n2cnc3c(NCCCCNC(=O)CCCCCN4/C(=C/C=C/C=C/C5=[N+](CC)c6ccc(S(=O)(=O)O)cc6C5(C)C)C(C)(C)c5cc(S(=O)(=O)[O-])ccc54)ncnc32)[C@H](O)[C@@H]1O	ADORA1	CRE reporter gene, agonist	CHO-A1	Gi-mediated inhibition, added: forskolin	5.37 µM
Cc1[nH]c2ccccc2c1CCNC(=O)c1cccs1	ACTR3/Actin-related protein 2 (Homo sapiens, UniProt P61158+P61160)	actin polymerization, inhibitor, pyrenyl-actin polymerization			4 µM
Cc1oc2ccc(OCC(=O)O)cc2c1C(=O)OC(C)C	STAT3 (Homo sapiens, UniProt P40763)	protein-protein interaction, inhibitor, ELISA			~15 µM
N=C(N)NCCC[C@H](NC(=O)[C@H](CC(=O)O)NC(=O)[C@@H]1CSCCC(=O)NCC(=O)N[C@@H](Cc2c[nH]cn2)C(=O)N[C@H](Cc2ccccc2)C(=O)N[C@@H](CCCNC(=N)N)C(=O)N[C@H](Cc2c[nH]c3ccccc23)C(=O)N1)C(=O)N[C@@H](Cc1ccccc1)C(=O)NCC(N)=O	MC3R (Homo sapiens, UniProt P41968)	ligand displacement, radioligand			> 10 µM
O=C(/C=C/c1ccc(O)c(O)c1)CC(=O)/C=C/c1ccc(O)c(O)c1	PNLIP (Sus scrofa, UniProt P00591)	enzyme activity, inhibitor, absorbance			67.8 µM
CN1C(=O)/C(=C2\Nc3ccccc3C2=O)c2cccc(Br)c21	Dyrk1a (Rattus norvegicus, UniProt Q63470)				> 10 µM
CCOC(=O)C(CC)NC(=O)CN1C(=O)S/C(=C\c2ccc([N+](=O)[O-])cc2)C1=O (stereo not shown)	α-amylase	enzyme activity, DNSA colorimetric			> 100 µM
COc1cc(O)cc2cc3oc(C)cc(=O)c3c(O)c12	Beta-secretase 1 (BACE1, Homo sapiens, UniProt P56817)	enzyme activity, inhibitor, FRET			> 100 µM
CC(C)CN(CC(=O)NCCCCCCNC(=O)c1ccc(-c2n[nH]c3ccccc23)cc1)C(=O)C(C)NC(=O)C1COc2ccccc2C1 (stereo not shown)	MAPK10	enzyme activity, inhibitor			0.127 µM
S=C1NC(=S)/C(=C/c2ccc3c(c2)OCO3)S1	PIK3CA (Homo sapiens, UniProt P42336)	enzyme activity, inhibitor, radiometric			1.9 µM
CC(=O)OC1CCC2(C)C(CCC3(C)C2CCC2C(C4=CC(C=C(C)C)OC4=O)CCC23C)C1(C)C (stereo not shown)	α-glucosidase (yeast)	inhibitor		added: pNPG	34 ± 3.01 µM

Structure (SMILES)	target	test	test system	setting	IC50
Oc1cccc(Nc2ncnc3[nH]c4cc(Br)ccc4c23)c1	PTK6 (Homo sapiens, UniProt Q13882)	enzyme activity, inhibitor, ADP detection			1 µM
O=C(O)c1ccc(Cn2sc3ccccc3c2=O)cc1	HDAC4 (Homo sapiens, UniProt P56524)	enzyme activity, inhibitor			9.9 µM
CC(C)[C@@H](CS(=O)(=O)C(C)C)N1C(=O)[C@@](C)(CC(=O)NCCOCCOCCOCCNC(=O)c2ccc(F)nc2)C[C@H](c2cccc(Cl)c2)[C@H]1c1ccc(Cl)cc1	MDM2 (Homo sapiens, UniProt Q00987)	ligand displacement, FP			0.012 µM
C[C@@H]1O[C@@H](O[C@@H]2[C@@H](O)[C@H](OCCc3ccc(O)c(O)c3)O[C@H](CO[C@@H]3O[C@H](CO)[C@@H](O)[C@H](O)[C@H]3O)[C@H]2OC(=O)/C=C/c2ccc(O)c(O)c2)[C@H](O)[C@H](O)[C@H]1O	NUDT1 (Homo sapiens, UniProt P36639)	enzyme activity, inhibitor, absorbance			7.01 µM
COC(=O)C1=COC(OC2OC(CO)C(O)C(O)C2O)C2C(C)OC(O)CC12 (stereo not shown)	PTPN1 (Homo sapiens, UniProt P18031)	enzyme activity, inhibitor, absorbance			> 100 µM
CNC(=O)c1cc(C)ccc1NC(=O)c1ccc(-c2cc(O)ccc2C)c(C)c1	FGR (Homo sapiens, UniProt P09769)	target engagement in cells, BRET			45.6 µM
CC(=O)N1CC(C(=O)N2CCN(Cc3nc4ccccc4s3)CC2)Oc2ccccc21 (stereo not shown)	gyrB (Escherichia coli, UniProt P0AES6)	enzyme activity, inhibitor			59.7 ± 1.4 µM
C#CC(=O)Nc1ccc2nc(NCCCCCN(C)C)nc(NCCCCCCN(C)C)c2c1	Histone-lysine N-methyltransferase SETDB1, triple Tudor domain (SETDB1, Homo sapiens, UniProt Q15047)	binding, inhibitor			0.66 ± 0.26 µM
O=C1C2=C(Nc3ccccc3SC2c2ccc(O)c(O)c2)c2ccccc21 (racemic)	MT-CYB, bc1 complex (Plasmodium falciparum, UniProt Q02768)	enzyme activity, inhibitor	purified mitochondrial fractions		> 5 µM
C[C@]12CC[C@@H]3c4ccc(O)c(Br)c4CC[C@H]3[C@@H]1CCC2=O	AKR1C2 (Homo sapiens, UniProt P52895)	enzyme activity, inhibitor, absorbance		pH 9	7 µM
CC1OC(Oc2c(-c3ccc(O)cc3)oc3cc(O)cc(O)c3c2=O)C(OC(=O)C=Cc2ccc(O)cc2)C(O)C1OC(=O)C=Cc1ccc(O)cc1 (stereo not shown)	CCR4 (Homo sapiens, UniProt P51679)	calcium flux, antagonist	293FT GCaMP6 transfected		> 10 µM
CC(=O)Nc1ccc(C(=O)Nc2cc(-c3cccs3)ccc2N)cc1	HDAC7 (Homo sapiens, UniProt Q8WUI4)	deacetylase activity, inhibitor, recombinant enzyme			> 30 µM
Nc1ccc(Oc2c(F)c(F)c(Oc3ccc(N)cc3)c(F)c2F)cc1	ESR2 (Homo sapiens, UniProt Q92731)	coactivator recruitment, antagonist			0.81 µM
CC(=O)OCCN(c1ccccc1Oc1ccc(C)cc1)S(=O)(=O)c1ccc(N)cc1	ESRRA (Homo sapiens, UniProt P11474)	transcriptional activity, inhibitor, mammalian two-hybrid reporter	HEK293T	48 h, GAL4-LBD fusion	1.78 µM
CCNC(=O)[C@H]1O[C@@H](n2cnc3c(NCCCCNC(=O)CCCCCNC(=O)CCC4=[N+]5C(=Cc6c(C)cc(C)n6[B-]5(F)F)C=C4)ncnc32)[C@H](O)[C@@H]1O	ADORA1	ligand displacement in cells, radioligand			> 100 µM
O=C(NC1CCCC1)N1CCC=C(c2cc3c(Nc4cc5ncsc5cc4F)ncnc3s2)C1	RIPK2	enzyme activity, inhibitor			0.01 µM
COc1cc2oc3cc(O)c(OC)c(CC=C(C)C)c3c(=O)c2c(O)c1CC=C(C)C	α-glucosidase Saccharomyces cerevisiae			added: p-nitrophenyl glucoside	15 µM
Cc1cc(NC(=O)c2cccc(-n3cc(NC(=O)Nc4ccccc4Cl)cn3)c2)ccn1	MAPK10	enzyme activity, inhibitor, TR-FRET			0.115 µM
O=C(/C=C/c1ccccc1Cl)NO	hdac10 (Danio rerio, UniProt F1QCV2)				0.185 ± 0.047 µM
c1ccc(CCC2CCNC2)cc1 (stereo not shown)	Bifunctional dihydrofolate reductase-thymidylate synthase (Plasmodium falciparum K1, UniProt P13922)	enzyme activity, inhibitor, absorbance			258 µM
COc1cc(O)ccc1CCC(c1ccc(O)cc1)c1cc2c(c(C)c1O)OC(c1ccc(O)cc1)CC2 (mixture of isomers)	ALOX5 (Homo sapiens, UniProt P09917)	enzyme activity, inhibitor			0.5 µM
COC(=O)C1C(C=NO)=Cc2cc3c(cc2C1c1cc(OC)c(OC)c(OC)c1)OCO3 (stereo not shown)	tubulin alpha/beta (Leishmania infantum, UniProt A0A381MCS3+A4HTR0)	tubulin polymerization, inhibitor		37 °C	> 20 µM
COc1ccc(-c2ccn(CC[C@](C)(C(=O)NO)S(C)(=O)=O)c(=O)c2)c(F)c1	UDP-3-O-acyl-N-acetylglucosamine deacetylase (lpxC, Acinetobacter baumannii, UniProt A3M9X5)	enzyme activity, inhibitor			0.183 µM
